Results of several laboratories.
Numbered parts are unrelated; each lists some results of a single study.

Series 1
Target: PABPC1L2, full length, GST fusion (mouse, UniProt A0ABA7IW68)
Technique: RNAcompete
Form: RNA
Medium: in vitro
Concentration: 20 nM
Setting: 7-mer, probes averaged, single round
Reference: mean of 7-mers
Reading: higher = stronger binding
Construct (chain): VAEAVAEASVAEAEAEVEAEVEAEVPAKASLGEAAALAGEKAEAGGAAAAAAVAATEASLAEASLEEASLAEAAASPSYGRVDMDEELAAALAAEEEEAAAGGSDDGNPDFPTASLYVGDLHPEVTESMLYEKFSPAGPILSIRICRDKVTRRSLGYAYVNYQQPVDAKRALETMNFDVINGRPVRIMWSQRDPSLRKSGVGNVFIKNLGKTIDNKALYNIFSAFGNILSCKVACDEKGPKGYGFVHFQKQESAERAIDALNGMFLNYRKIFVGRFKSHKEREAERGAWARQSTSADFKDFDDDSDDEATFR
Oligonucleotide	7-mer Z-score
CGUAAGA	-0.264
CAUGGUC	-0.217
UGUGCUU	-0.168
UACCUGU	-0.311
GACGGCC	-0.117
GAGCAGA	0.111
UCGUAUG	-0.295
CUUACUG	-0.171
GUGCCUU	-0.222
CCUUAGG	-0.342
AAUCUCA	0.0388
UGAACUU	-0.235
UCGCCCU	-0.421
ACGCCCU	-0.253
GAUAGUU	-0.324
GAACCCA	0.066
ACGUUGA	-0.117
GACCUGA	-0.248
AGUAAAG	0.55
AGAAGGG	0.488
AAACCGC	0.476
GUGAGGA	-0.0627
CACGAAA	0.959

Series 2
Target: RNA binding protein fox-1 homolog 2, RRM domain, GST-SBP tag (RBFOX2, Homo sapiens, UniProt O43251-10, residues 100-194)
Technique: RNA Bind-n-Seq
Form: RNA
Medium: in vitro
Concentration: 365 nM
Setting: natural RNA segment, single round, ends assumed
Reference: no-protein control
Reading: higher = stronger binding
Target sequence (chain): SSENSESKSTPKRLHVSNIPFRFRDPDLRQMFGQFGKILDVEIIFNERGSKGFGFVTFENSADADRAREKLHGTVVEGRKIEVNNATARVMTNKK
Oligonucleotide	RBNS enrichment (R)
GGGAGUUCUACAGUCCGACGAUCAGCCAGCGACGUGGUGGUCAUCAGAAUAACUACAAGCCAUACUGAGAGGCAGCAGGAGCGGCCGAGUGACGACCGCACACGCUUUGUUUGGACGCGGAGUGAACACAAUUUGGAAUUCUCGGGUGCCAA	0.641
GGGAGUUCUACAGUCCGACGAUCGAGAGGGCUUGUAUCCCUCUUGUGCUAAGCAGACUCUACUCCUAACUGACUUCAAUAUUUCAGCAGGGUACACAGGCGUUUCCAAGUUUCAGUGACACCGUCCUGCCUAAUGGAAUUCUCGGGUGCCAA	0.282
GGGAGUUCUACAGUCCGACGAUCUUUGCUUUUCUAGGUCAUUAACGUUUUUUAUUUAGUUUCUUUAGCCAAUAGUGGCUGAGUUUCGCACUUGAUUUUCAAUAUUUUAUAGUAAGAAAUGACAAACUGCUUUGUGGAAUUCUCGGGUGCCAA	0.466
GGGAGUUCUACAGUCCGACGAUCCUUGAACAAAAUCAGGUCCCCUGGGGUGGAAGUCACAGCCAAGCGCCUUUUUAAGACUUGAGUGGUGGCACUAGCCAGUGUCCCCCAUGGCUGGGCAGUUGAGCACCUGCUGGAAUUCUCGGGUGCCAA	0.233
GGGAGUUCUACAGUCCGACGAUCGGGGAAGAGUGUGCUCUAGCAGGCCGUGAUCCCAGAGCCAGCAGGAUUGAUGACCAGGGCCCUUCCUUUCCUCUCCAGGGUCUCAAGUUGCCCCUGUCACUGGGGGAACAUGGAAUUCUCGGGUGCCAA	0.203
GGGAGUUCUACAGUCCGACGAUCUUGGUUUUUGAUUGUUGCAUUUUUCCUGUUUCUUAGGAUUGAGUUGAUUGGUUUGACGUGUUUGGUUCAGUGUCACGCACUGAUACAUGUUCUCUGUAAUUACAUGUCACUGGAAUUCUCGGGUGCCAA	0.565
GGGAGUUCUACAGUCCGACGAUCGUGUUACAAGGGAGAACUCAUUUGAGAUCAGUCUGUUGGCAUUGCAAUGAAGUGCUUUGUAUCAGGAAAGUGUACACUAUUGACCUUUUUUCCUGUUCACAAGCUGAGCCUGGAAUUCUCGGGUGCCAA	3.88
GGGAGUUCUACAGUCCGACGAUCGUUCUGUGGCUAGGAUUGCUAGAGGGUCCUGCCUAUGUGAUUUGCUUUAGGAGAAGUUAAGAGGUAUAUUCUUAAGGUGUAUUCUAUUUUGAUCUAAUUCUGUUUCUGGGUGGAAUUCUCGGGUGCCAA	0.603
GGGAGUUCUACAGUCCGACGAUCGGAUUCUGUGCCAUCUGAACAUGCUCUCCUGUUGGUGUGUAUGUCACUAGGGCAGUGGGGAGACGUCUUAACUCUGCUGCUUCCCAAGGAUGGCUGUUUAUAAUUUGGGGUGGAAUUCUCGGGUGCCAA	0.449
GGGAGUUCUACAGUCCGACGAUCCACUACGCAACCCACUGCCCUGCCCUGCCCUGCCCUGGCGGGGACUCUGGUUCCCUCCUUGCCUUCUGCUUCUCUUCCAUCUGGUUGACAACACCUAAGGUGUUGUGACUUGGAAUUCUCGGGUGCCAA	0.462
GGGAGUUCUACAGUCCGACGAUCAGUCACCAAACUCAGAAAAAACUAGCUGUGUGAGCAGCACCGUACCCUAGCGGUCUUCAGACAUUAAGUUCACGUCAUCCACUGAAAGGAAGGGUCCUUGCGUUGACAGCUGGAAUUCUCGGGUGCCAA	0.3
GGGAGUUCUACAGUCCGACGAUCUGGGAAUAGAAGAUCCAUUUGUCUUUGUGUAGAGCAAGCACGUUUUCCACCUCACUGUCUCCAUCCUCCACCUCUGAGAUGGACACUUAAGAGACGGGGCAAAUGUGGAUUGGAAUUCUCGGGUGCCAA	0.45

Series 3
Target: Prothrombin, mature alpha-thrombin (F2, Homo sapiens, UniProt P00734)
Technique: aptamer microarray, sandwich
Form: DNA with 2'F-ANA
Medium: in vitro
Concentration: 200 nM
Setting: whole 15-mer aptamer, many near background
With: Cy3 exosite-II aptamer, 400 nM
Reading: higher = stronger binding
Oligonucleotide: GGTTGGTGTGGTTGG
Modification	mean fluorescence intensity
2'F-ANA at 1 5 6 9 14 15	48.1 a.u.
2'F-ANA at 2 4 6 7 9 12	553 a.u.
2'F-ANA at 2 6 8 10 14 15	75.7 a.u.
2'F-ANA at 1 7 9 12 13 15	285 a.u.
2'F-ANA at 3 5 8 9 10 13 15	62.1 a.u.
2'F-ANA at 2 11 12 15	674 a.u.
2'F-ANA at 3 10 14	558 a.u.
2'F-ANA at 2 3 4 7 10 12 15	344 a.u.
2'F-ANA at 3 4 8 9 10 11 14 15	177 a.u.
2'F-ANA at 1 2 5 12 13 14	48.7 a.u.
2'F-ANA at 2 3 5 7 8 9 10 13 15	55.3 a.u.
2'F-ANA at 1 2 3 4 6 7 8 9 10 11 14 15	52.6 a.u.
2'F-ANA at 1 2 3 6 9 10 12 13 14	58.5 a.u.
2'F-ANA at 4 6 7 10 12 13	97 a.u.
2'F-ANA at 1 2 6 9 10 11 13 14	46.1 a.u.
2'F-ANA at 1 2 5 8 12	116 a.u.
2'F-ANA at 2 8 9	528 a.u.
2'F-ANA at 2 3 4 6 7 10 11 13 15	181 a.u.
2'F-ANA at 2 4 8 12 13 14	137 a.u.
2'F-ANA at 1 2 3 4 6 7 9 10 13 14	54.7 a.u.
2'F-ANA at 2 4 5 10 12 13 14	46.6 a.u.
2'F-ANA at 1 2 3 5 7 8 9 15	70 a.u.
2'F-ANA at 1 2 6 7 8 9 11	141 a.u.

Series 4
Target: Fragile X messenger ribonucleoprotein 1, C-terminal low-complexity region (Fmr1, Mus musculus, UniProt P35922)
Technique: RNA Bind-n-Seq
Form: RNA
Medium: in vitro
Concentration: 200 nM
Setting: whole 134-nt RNA, ends assumed
With: 150 mM LiCl
Reference: input library
Reading: higher = stronger binding
Each molecule: 7-deaza-guanosine replaces G
Oligonucleotide	log2 enrichment
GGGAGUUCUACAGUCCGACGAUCCUCAAGUCCUGUGCUACACAUCGUAUGUACCGAAUCGGAAAGGAAAGGAAAGGGAAAGUAUUAUGUUACGCCGUUCGGAUCUGCACUUCCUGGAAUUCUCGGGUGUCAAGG	-0.0905
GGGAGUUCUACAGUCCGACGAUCUGGGAGGUGGAUUUUGUCUAUUUUUUUAGCUCAUUUCCAGGGGUGGGAAUUUUUUUUUAAUAUGUGUCAUGAAUAAAGUUGUUUUUGAAAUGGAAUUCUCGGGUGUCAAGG	-0.348
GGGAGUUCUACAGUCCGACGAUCUCAAGUCCUGUGCUACACAUCGUAUGUACCGAAUCGGUUUGGAGGUUUUUUUGGAAAGUAUUAUGUUACGCCGUUCGGAUCUGCACUUCCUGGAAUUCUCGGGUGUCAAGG	-0.55
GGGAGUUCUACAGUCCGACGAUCAAGUCCUGUGCUACACAUCGUAUGUACCGAAUCGGUUUUGGGUUUUGGUUUUGGGGAAAGUAUUAUGUUACGCCGUUCGGAUCUGCACUUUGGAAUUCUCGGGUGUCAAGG	-1.54
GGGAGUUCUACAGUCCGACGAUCCCUCAAGUCCUGUGCUACACAUCGUAUGUACCGAAUCGGGCGGCGGGGCGGGAAAGUAUUAUGUUACGCCGUUCGGAUCUGCACUUCCAGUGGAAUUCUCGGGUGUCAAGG	-0.0988
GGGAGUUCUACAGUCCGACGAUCCCUGUGCUACACAUCGUAUGUACCGAAUCGGGGAAAAAAAGGGGAAAAAGGGGAAAGGGGAAAGUAUUAUGUUACGCCGUUCGGAUCUGCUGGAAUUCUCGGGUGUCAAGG	0.991
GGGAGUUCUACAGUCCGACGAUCAGUCCUGUGCUACACAUCGUAUGUACCGAAUCGGGAAAAAGGGAAAAAGGGUUUGGGAAAGUAUUAUGUUACGCCGUUCGGAUCUGCACUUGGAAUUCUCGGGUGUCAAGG	-2.86
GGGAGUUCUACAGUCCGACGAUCAGUCCUGUGCUACACAUCGUAUGUACCGAAUCGGGGAAAAGGGGAAAAGGAAAAGGGGAAAGUAUUAUGUUACGCCGUUCGGAUCUGCACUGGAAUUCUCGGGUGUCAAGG	0.158
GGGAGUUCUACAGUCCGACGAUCCUCAAGUCCUGUGCUACACAUCGUAUGUACCGAAUCGGGAAAGGGUGGGUGGGAAAGUAUUAUGUUACGCCGUUCGGAUCUGCACUUCCAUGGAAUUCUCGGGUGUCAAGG	-0.391
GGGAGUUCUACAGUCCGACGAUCUCAACAAGAGAUGUUCAAGAACUUUUGACACAAUAUACCAAGUUUGCACAGAUGGUAAAAAAGAUGGGAGGUAUCAAAGGACUUUUCAAAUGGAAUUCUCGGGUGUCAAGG	-1.13
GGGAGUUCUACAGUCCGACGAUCUCAAGUCCUGUGCUACACAUCGUAUGUACCGAAUCGGAAAAAGGAAAGGUUUGGAAAGUAUUAUGUUACGCCGUUCGGAUCUGCACUUCCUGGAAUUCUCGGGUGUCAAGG	-1.71

For quick reference, copied from above (series 1):
Oligonucleotide	7-mer Z-score
AAUCUCA	0.0388
GACCUGA	-0.248
CAUGGUC	-0.217
GAUAGUU	-0.324
CUUACUG	-0.171
GAACCCA	0.066
GACGGCC	-0.117
